Results from different studies.
Compare with care: the assays were run in different laboratories. Several values in a cell are separate wells, animals, samples, runs or records. ± marks the error that the study gave.

O=C(C[Se]C(=O)c1cc2ccccc2[nH]1)Nc1cccc(C(F)(F)F)c1 — mean growth percent (NCI60 leukemia subpanel; cell growth; 10 µM, 48 h, one-dose): -81.6%
CC12CCCC(NS(=O)(=O)C3CC3)(C1)C1CC(C)(C)C1CC2 (stereo not drawn) — inhibition (HT-29; cell growth or viability, CCK-8; 10 µM): < 50%
CCC(=CCc1c(O)cc2c(c1O)C(=O)CC(c1ccc(O)c(OC)c1)O2)CC (stereo not drawn) — inhibition (HeLa; cell growth or viability, MTT; 100 µM, 48 h): 100%
Cn1ncc2cc(-c3cncc(Cl)c3N3CCC4(CCNC4=O)CC3)ccc21 — log2 fold change (LS174T; gene expression, microarray, item: MT1E mRNA; concentration not given, 4 h; baseline: untreated cells): -2.15
CC(=O)N[C@@H](CC(=O)O)C(=O)N[C@@H](CC(C)C)C(=O)N[C@@H](C)C(=O)N[C@@H](CC(=O)O)C(=O)COC(=O)c1c(C)cccc1C — cell lysis (THP-1 cells, LPS-primed; pyroptosis, LDH release; 25 µM, LPS 1 µg/mL, 4 h, with: nigericin 5 µM, 2 h): 88.5%
CN1CCCNC(=O)c2cccc(c2)C(=O)NCCCN(C)CCCNc2cccc3c2C(=O)c2cccc(c2C3=O)NCCC1 — log2 fold change (SAS; RNA-Seq, item: TCEA2 mRNA; 1 µM, 6 h; baseline: untreated cells): 0.893
Cc1cc(Cl)cc(-c2ccnc3cc(CN4C(=O)C5C(C4=O)C5(C)C)sc23)c1C[C@@H]1CNCCO1 (stereo partly drawn) — cells in G1 phase (CHP-212 resistant cells (pooled); PI flow cytometry; 1 µM, 24 h): 74.4% and 76% and 77.2%
c1cc(C2CCCCC2)ccc1-c1cnc(N2CCOCC2)nc1 — hepatic clearance (liver microsome stability; human liver microsomes; 1 µM, without NADPH): 10 mL/min/kg
Cc1ccncc1.[Cl-].[Cl-].[Ru+2].c1cc(-c2ccc3cccnc3n2)nc(-c2ccc3cccnc3n2)c1.c1ccc2cc3nc4c5cccnc5c5ncccc5c4nc3cc2c1 — phototherapeutic index (SK-MEL-28; visible light, oxygen 18.5%; baseline: dark EC50 over light EC50): 117
N#C[C@@H]1CCCN1C(=O)CNC(=O)c1ccnc2ccc(OCCCN3CCN(C(=O)CCc4ccc(O)c(CN5CCN6CC(=O)[O][Al-]([18F])([O]C(=O)C5)[O]c5ccc(CCC(=O)N7CCN(CCCOc8ccc9nccc(C(=O)NCC(=O)N%10CCC[C@H]%10C#N)c9c8)CC7)cc5C6)c4)CC3)cc12 (stereo partly drawn) — internalized fraction (HT1080 cells expressing human FAP; 15 min, 37 °C): 63.9 ± 2.5%
CCC(=CCc1c(O)cc2c(c1O)C(=O)CC(c1ccccc1O)O2)CC (stereo not drawn) — inhibition (HeLa; cell growth or viability, MTT; 0.938 µM, 48 h): 1.51%
O=S(=O)(N[C@H]1CCO[C@@H](C2c3ccccc3CCc3ccccc32)C1)c1ccc(OC(F)(F)F)cc1 — total PARP level (D425; immunoblot; concentration not given, 24 h): decreased
CCC(=CCc1c(O)cc2c(c1O)C(=O)CC(c1ccc(O)cc1OC)O2)CC (stereo not drawn) — inhibition (HeLa; cell growth or viability, MTT; 0.781 µM, 48 h): 9.59%
C=CC(=O)N1CCCC(n2c(=O)c3ncccc3n(Cc3ccc(Oc4ccccc4)cc3)c2=O)C1 (stereo not drawn) — late apoptotic cells (OCI-LY19; annexin V/PI flow cytometry; 500 nM, 72 h): 34.4%
CC(=O)N[C@@H](CO)C(=O)N[C@@H](Cc1ccccc1)C(=O)N[C@@H](C)C(=O)N[C@@H](CC(=O)O)C(=O)COC(=O)c1c(C)cccc1C — cell lysis (THP-1 cells, LPS-primed; pyroptosis, LDH release; 25 µM, LPS 1 µg/mL, 4 h, with: nigericin 5 µM, 2 h): 90.1% and 86.5%
CC12CCCC(n3cc(C(N)=O)nn3)(C1)C1CC(C)(C)C1CC2 (stereo not drawn) — inhibition (HT-29; cell growth or viability, CCK-8; 50 µM): 88.8%
CNS(=O)(=O)Nc1nccc(Cc2c(C)c3ccc(Oc4ncccc4F)cc3oc2=O)c1F — IC50 (COLO 704; cell viability; 7 days): > 1 µM
CCN(C(=O)c1cc(F)ccc1Oc1nncnc1N1CCC2(C1)CN([C@H](CCCN(C)CCOC)C(C)C)C2)C(C)C — GI50 (MG-63; cell growth or viability; 72 h): > 10 µM
CCC(CC)Nc1ncc2c(/C=C/C(=O)N3CCC(OC)CC3)nn(Cc3cccc(C(F)(F)F)c3)c2n1 — EC50 (FLO-1; cell growth or viability, resazurin; 5 days): 7.94 µM
COc1ccc(CNC[C@](O)(COCc2ccccc2)[C@@H]2CC[C@@H](C)C[C@H]2OCc2ccccc2)cc1 — inhibition (A2780; cell growth or viability, MTT; 10 µM, 72 h): 92.8%
CC12CCCC(NC(=O)c3ccc([N+](=O)[O-])cc3)(C1)C1CC(C)(C)C1CC2 (stereo not drawn) — inhibition (HT-29; cell growth or viability, CCK-8; 300 µM): 62.4%
Cc1cc2oc(=O)cc(Cn3ccnc3)c2cc1O — calcium mobilisation signal (COS-7 (untransfected); 500 µM, unit not given; baseline: 3 µM ionomycin): 6.76 ± 1.7
O=S(=O)(N[C@H]1CCO[C@@H](C2c3ccc(F)cc3CCc3cc(F)ccc32)C1)c1ccc(OC(F)(F)F)cc1 — I2PP2A protein level (D341; immunoblot; concentration not given): increased
COc1ccccc1CNC[C@](O)(COCc1ccccc1)[C@@H]1CC[C@@H](C)C[C@H]1OCc1ccccc1 — inhibition (HeLa; cell growth or viability, MTT; 10 µM, 72 h): 98.1%
CC(C)c1ccc(N(C)c2ccc3c(c2)OCC[C@H]3CNc2cnccc2C(=O)O)cc1 — IC50 (NCI-H1650; cell viability, CellTiter-Glo; 7 days): ≥ 10 µM
O=C(Nc1nnc2c1c(-c1ccc(Cl)cc1)nc1sc(=Cc3ccco3)c(=O)n12)c1ccccc1 (mixture of isomers) — cell growth (SK-MEL-2; SRB; 10 µM, NCI60 single-dose screen; baseline: untreated): 68.9%
CC(=O)N[C@@H](CC(=O)O)C(=O)N[C@@H](CCC(=O)O)C(=O)N[C@@H](CCC(=O)O)C(=O)N[C@H](C(=O)NCC(=O)N[C@@H](CCC(=O)O)C(=O)N[C@@H](Cc1ccc(O)cc1)C(=O)O)[C@@H](C)O — AP1 phosphorylation (HaCaT; western blot; concentration not given, with: UVA): inhibited
CCN(CC)CC(=O)Nc1cccc(-n2cc(-c3ccc4ccc(-c5cn(-c6cccc(NC(=O)CN(CC)CC)c6)nn5)cc4c3)nn2)c1 — fold regulation (RCC4; PCR angiogenesis array, item: HIF1A; 5 x IC50, 6 h, normoxia; baseline: untreated): -1.58
CCC(=CCc1c(O)cc2c(c1O)C(=O)CC(c1cccc(O)c1)O2)CC (stereo not drawn) — growth inhibition (MCF7; cytotoxicity, MTT; 27.14 µM, 48 h): 44.9%
Cc1ncsc1-c1ccc(C(C)NC(=O)C2CC(O)CN2C(=O)C(NC(=O)CCCCCCCCCCN2CCCC(Nc3ncc(Cl)c(Nc4ccccc4S(=O)(=O)C(C)C)n3)C2)C(C)(C)C)cc1 (stereo not drawn) — log2 fold change (22Rv1; RNA-seq, item: PLXNC1 mRNA; concentration not given; baseline: DMSO): -3.12
Nc1ncc(-c2ccc(C3CCCCC3)cc2)cn1 — hepatic clearance (liver microsome stability; dog liver microsomes; 1 µM): 29 mL/min/kg
COC1CCN(C(=O)/C=C/c2nn(Cc3cccc(C(F)(F)F)c3)c3nc(N4CCCCC4)ncc23)CC1 — EC50 (FLO-1; cell growth or viability, resazurin; 5 days): > 30 µM
CC(=O)N[C@@H](Cc1ccc(I)cc1)C(=O)N[C@@H](CCC(=O)O)C(=O)N[C@H](C(=O)N[C@@H](CC(=O)O)C(=O)COC(=O)c1c(C)cccc1C)[C@@H](C)O — LDH release (THP-1 cells expressing FKBP-caspase-4; pyroptosis, inhibitor; concentration not given, with: B/B dimerizer): 35.5% and 30.3% and 32.7%
O=C(NCCCSc1ccc2c(/C=C/c3ccccn3)n[nH]c2c1)c1ccc(Cl)c(C(F)(F)F)c1 — GI50 (BaF3; cell growth or viability, CCK-8): > 10 µM
COC1=C2CC(C)CC(OC)C(O)C(C)C=C(C)C(OC(N)=O)C(OC)C=CC=C(C)C(=O)NC(=CC1=O)C2=O (stereo not drawn) — log fold change (Rh30; ChIP-seq, item: H3K36me3 peak; concentration not given, intron chr10:120787800-120842999; baseline: untreated control): -0.5
CCC(=CCc1c(O)cc2c(c1O)C(=O)CC(c1cc(O)ccc1OC)O2)CC (stereo not drawn) — inhibition (HeLa; cell growth or viability, MTT; 25 µM, 48 h): 39.6%
CC[C@H](C)[C@H](NC(=O)[C@H](CCC(=O)O)NC(=O)[C@H](Cc1ccc(I)cc1)NC(C)=O)C(=O)N[C@@H](CC(=O)O)C(=O)COC(=O)c1c(C)cccc1C — cell lysis (THP-1 cells, LPS-primed; pyroptosis, LDH release; 25 µM, LPS 1 µg/mL, 4 h, with: nigericin 5 µM, 2 h): 88.5%
N#C[C@@H]1CC(F)(F)CN1C(=O)CNC(=O)c1ccnc2ccc(OCCCN3CCN(C(=O)CCc4ccc5c(c4)CN4CCN(Cc6cc(CCC(=O)O)ccc6O)CC(=O)[O][Al-]([18F])([O]C(=O)C4)[O]5)CC3)cc12 (stereo partly drawn) — internalized fraction (HT1080 cells expressing human FAP; 60 min, 37 °C): 86.4 ± 1.1%
COc1ccccc1-c1ccncc1C(=O)Nc1nnc(OCc2ccc(Cl)cc2)s1 — colony count (MDA-MB-436 BRCA1-mutant; 12 µM): 6 and 5 and 12 and 14 and 13
O=C(C[Se]C(=O)C12CC3CC(CC(C3)C1)C2)Nc1cccc(C(F)(F)F)c1 — TGI (NCI60 NSCLC subpanel mean; cell growth): 8.74 µM
C[C@@H]1CC[C@@H]([C@](O)(CNCc2cccc(F)c2)COCc2ccccc2)[C@H](OCc2ccccc2)C1 — inhibition (A2780; cell growth or viability, MTT; 10 µM, 72 h): 95%
COc1cc(N2CCN(C(=O)CN)CC2)ccc1Nc1ncc(Cl)c(Nc2ccccc2P(C)(C)=O)n1 — viability (NCI-H3122; CCK-8; 5 nM, 48 h): 95%
CCc1c(-c2ccc3[nH]ncc3c2)cnc(N)c1-c1ccc(O)cc1 — viability (CHP-212 resistant sublines, USP7 V517F heterozygous; 25 µM): 47.7%
O=S(=O)(Nc1ccc(OC(F)(F)F)cc1)N1CCCC(C2c3ccc(F)cc3CCc3cc(F)ccc32)C1 (stereo not drawn) — protein level (D341; immunoblot, item: CIP2A; concentration not given): decreased
CC12CCCC(n3cc(CN4CCS(=O)(=O)CC4)nn3)(C1)C1CC(C)(C)C1CC2 (stereo not drawn) — inhibition (HT-29; cell growth or viability, CCK-8; 50 µM): 40.4%
C[C@@H]1CC[C@@H]([C@@](O)(CNCc2ccccc2F)COCc2ccccc2)[C@H](OCc2ccccc2)C1 — inhibition (A2780; cell growth or viability, MTT; 10 µM, 72 h): 95.3%
CC12CCCC(NS(=O)(=O)c3ccc(O)c(N)c3)(C1)C1CC(C)(C)C1CC2 (stereo not drawn) — inhibition (HT-29; cell growth or viability, CCK-8; 50 µM): 93.5%
CCC(=CCc1c(O)cc2c(c1O)C(=O)CC(c1cccc(O)c1OC)O2)CC (stereo not drawn) — inhibition (HeLa; cell growth or viability, MTT; 100 µM, 48 h): 93.5%

For quick reference, copied from above:
Cc1ncsc1-c1ccc(C(C)NC(=O)C2CC(O)CN2C(=O)C(NC(=O)CCCCCCCCCCN2CCCC(Nc3ncc(Cl)c(Nc4ccccc4S(=O)(=O)C(C)C)n3)C2)C(C)(C)C)cc1 (stereo not drawn) — log2 fold change (22Rv1; RNA-seq, item: PLXNC1 mRNA; concentration not given; baseline: DMSO): -3.12
CCC(=CCc1c(O)cc2c(c1O)C(=O)CC(c1cccc(O)c1OC)O2)CC (stereo not drawn) — inhibition (HeLa; cell growth or viability, MTT; 100 µM, 48 h): 93.5%
COC1=C2CC(C)CC(OC)C(O)C(C)C=C(C)C(OC(N)=O)C(OC)C=CC=C(C)C(=O)NC(=CC1=O)C2=O (stereo not drawn) — log fold change (Rh30; ChIP-seq, item: H3K36me3 peak; concentration not given, intron chr10:120787800-120842999; baseline: untreated control): -0.5
CC12CCCC(n3cc(CN4CCS(=O)(=O)CC4)nn3)(C1)C1CC(C)(C)C1CC2 (stereo not drawn) — inhibition (HT-29; cell growth or viability, CCK-8; 50 µM): 40.4%
Cc1cc2oc(=O)cc(Cn3ccnc3)c2cc1O — calcium mobilisation signal (COS-7 (untransfected); 500 µM, unit not given; baseline: 3 µM ionomycin): 6.76 ± 1.7
